Measured values collected from several papers.
Every numbered part comes from another study and shows a few of its results, in no order.

Sequences of proteins named here, by UniProt entry; tags and fusion partners are left off. Residues count along the entry.
UniProt P42574, whole entry, looked up: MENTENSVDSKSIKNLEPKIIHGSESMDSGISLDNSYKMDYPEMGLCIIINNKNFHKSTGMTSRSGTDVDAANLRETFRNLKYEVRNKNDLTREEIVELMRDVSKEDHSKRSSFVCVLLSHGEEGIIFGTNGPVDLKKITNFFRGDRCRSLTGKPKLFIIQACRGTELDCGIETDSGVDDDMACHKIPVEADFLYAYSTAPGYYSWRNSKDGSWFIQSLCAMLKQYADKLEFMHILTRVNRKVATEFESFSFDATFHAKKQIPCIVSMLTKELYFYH
UniProt P04757, 26-499 limits assumed: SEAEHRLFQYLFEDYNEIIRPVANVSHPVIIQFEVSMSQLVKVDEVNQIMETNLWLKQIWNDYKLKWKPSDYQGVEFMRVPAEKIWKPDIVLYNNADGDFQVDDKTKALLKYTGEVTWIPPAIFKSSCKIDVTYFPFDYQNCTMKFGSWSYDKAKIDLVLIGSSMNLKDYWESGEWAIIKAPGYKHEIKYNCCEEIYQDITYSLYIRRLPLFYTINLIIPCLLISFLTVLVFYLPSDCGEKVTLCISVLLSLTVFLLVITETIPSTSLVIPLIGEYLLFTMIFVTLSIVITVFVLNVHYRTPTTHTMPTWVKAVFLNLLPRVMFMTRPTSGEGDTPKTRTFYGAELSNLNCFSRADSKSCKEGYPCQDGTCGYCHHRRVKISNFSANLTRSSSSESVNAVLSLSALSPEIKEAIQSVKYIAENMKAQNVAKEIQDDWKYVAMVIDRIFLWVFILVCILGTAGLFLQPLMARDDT
UniProt P12390, 25-500 limits assumed: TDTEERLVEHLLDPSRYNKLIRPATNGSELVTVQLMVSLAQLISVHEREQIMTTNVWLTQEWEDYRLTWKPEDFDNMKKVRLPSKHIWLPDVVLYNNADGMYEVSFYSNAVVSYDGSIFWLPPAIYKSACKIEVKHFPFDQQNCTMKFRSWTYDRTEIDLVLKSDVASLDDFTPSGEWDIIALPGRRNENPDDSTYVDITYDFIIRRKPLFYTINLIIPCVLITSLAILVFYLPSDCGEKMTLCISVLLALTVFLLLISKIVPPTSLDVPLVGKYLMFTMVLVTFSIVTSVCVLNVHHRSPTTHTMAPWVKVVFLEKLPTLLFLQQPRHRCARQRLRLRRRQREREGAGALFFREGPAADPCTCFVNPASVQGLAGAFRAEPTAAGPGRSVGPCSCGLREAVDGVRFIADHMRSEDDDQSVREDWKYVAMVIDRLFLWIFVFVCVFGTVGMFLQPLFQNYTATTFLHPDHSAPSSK
UniProt P10959, 19-549 limits assumed: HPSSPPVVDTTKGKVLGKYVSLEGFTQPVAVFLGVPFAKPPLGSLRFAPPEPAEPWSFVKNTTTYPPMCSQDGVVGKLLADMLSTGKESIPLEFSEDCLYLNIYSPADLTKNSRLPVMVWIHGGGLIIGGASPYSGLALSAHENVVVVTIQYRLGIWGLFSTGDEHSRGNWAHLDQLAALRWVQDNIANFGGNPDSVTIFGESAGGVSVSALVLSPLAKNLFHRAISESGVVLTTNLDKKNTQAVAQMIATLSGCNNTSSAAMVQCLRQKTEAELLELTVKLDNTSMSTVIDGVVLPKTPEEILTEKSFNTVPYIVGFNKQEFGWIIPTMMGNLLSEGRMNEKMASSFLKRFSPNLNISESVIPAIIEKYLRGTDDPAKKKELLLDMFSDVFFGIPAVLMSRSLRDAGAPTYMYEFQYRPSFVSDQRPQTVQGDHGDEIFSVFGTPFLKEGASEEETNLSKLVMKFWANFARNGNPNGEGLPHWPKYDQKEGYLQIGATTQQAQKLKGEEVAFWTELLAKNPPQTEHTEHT

Set 1
Structure (SMILES): N#Cc1c(-c2ccc(Cl)cc2Cl)n(-c2nc(-c3ccc(Cl)cc3)c3c(NC(=O)c4ccccc4)nnc-3[nH]2)[nH]c1=O
| cell line | method | notes | CC50 |
| --- | --- | --- | --- |
| OVCAR-8 | SRB | – | > 100 µM |
| M14 | SRB | – | > 100 µM |
| NCI/ADR-RES | NCI60 SRB | 5 log dose range | > 100 µM |
| MOLT-4 | SRB | – | > 100 µM |
| OVCAR-4 | SRB | – | > 100 µM |
| PC-3 | SRB | – | > 100 µM |
| OVCAR-5 | SRB | – | > 100 µM |

Other studies, line by line
| SMILES | tested on | assay | test system | conditions | measurement | value |
| --- | --- | --- | --- | --- | --- | --- |
| CC(C)[C@H](NC(=O)CNC(=O)[C@H](CC(=O)O)NC(=O)[C@@H](NC(=O)[C@H](CCC(=O)O)NC(=O)[C@H](CC(=O)O)NC(=O)CCNC(=O)Cc1cc(=O)oc2cc(N)ccc12)C(C)C)C(=O)N[C@@H](CCCCNc1ccc([N+](=O)[O-])cc1[N+](=O)[O-])C(=O)N[C@@H](CC(=O)O)C(N)=O | Caspase-3 (CASP3, Homo sapiens, UniProt P42574) | substrate | – | pH 7.2 | Km | 6.35 µM |
| CC[C@H](C)[C@@H]1NC(=O)[C@H](CCC(=O)O)NC(=O)[C@@H]2CCCN2C(=O)[C@H](Cc2c[nH]cn2)NC(=O)[C@H](CCCNC(=N)N)NC(=O)[C@H](C(C)C)NC(=O)[C@H](CC(N)=O)NC(=O)[C@@H]2CSSC[C@H](NC(=O)CN)C(=O)N[C@@H](CSSC[C@@H](C(N)=O)NC1=O)C(=O)N[C@@H](CO)C(=O)N[C@@H](Cc1c[nH]cn1)C(=O)N1CCC[C@H]1C(=O)N[C@@H](C(C)C)C(=O)N2 | Neuronal acetylcholine receptor; alpha3/beta2 (Rattus norvegicus, UniProt P04757+P12390) | ion current, antagonist, two-electrode voltage clamp | Xenopus oocytes | rat, with: ACh 100 µM | IC50 | > 10 µM |
| CC(C)C1CCC(N2CCC3(CC2)C(=O)N(CCNS(N)(=O)=O)Cc2ccccc23)CC1 (centres unmarked) | – | warm water tail withdrawal | rhesus monkey | subcutaneous, 0.03 mg/kg | antinociception duration | ≤ 6 h |
| Cc1nn(-c2ccc(Cl)cc2)c2c1C(c1cccc(Cl)c1Cl)C(C#N)=C(N)O2 (centres unmarked) | Vero E6 | – | – | 0.4 µM | viability | 89.4% |
| CC(C)CC(NC(=O)C(Cc1ccccc1)NC(=O)c1cnc(C(=O)NC(Cc2ccccc2)C(=O)NC(CC(C)C)B(O)O)cn1)B(O)O (centres unmarked) | U-266 | cell viability, CellTiter-Glo | – | 48 h | IC50 | 0.0061 µM |
| Cc1nn(-c2ccc(Cl)cc2)c2c1C(c1ccc([N+](=O)[O-])cc1)C(C#N)=C(N)O2 (centres unmarked) | Vero E6 | – | – | 1.6 µM | viability | 74.3% |
| COP(=O)(OC)Oc1ccc([N+](=O)[O-])cc1Cl | Carboxylesterase 1C (Ces1c, Rattus norvegicus, UniProt P10959) | enzyme activity, inhibitor | rat, postnatal day 70, rat serum | with: p-nitrophenyl valerate | IC50 | 0.081 µM |

A few entries again (other studies, line by line):
| SMILES | tested on | assay | test system | conditions | measurement | value |
| --- | --- | --- | --- | --- | --- | --- |
| CC(C)C1CCC(N2CCC3(CC2)C(=O)N(CCNS(N)(=O)=O)Cc2ccccc23)CC1 (centres unmarked) | – | warm water tail withdrawal | rhesus monkey | subcutaneous, 0.03 mg/kg | antinociception duration | ≤ 6 h |
